Results of several laboratories.
A part holds a random share of what one study measured.

Series 1
Target: Centromere-binding protein 1, full length, N-terminal tag (CBF1, Saccharomyces cerevisiae, UniProt P17106, residues 1-351)
Chain of UniProt P17106 (whole entry, looked up): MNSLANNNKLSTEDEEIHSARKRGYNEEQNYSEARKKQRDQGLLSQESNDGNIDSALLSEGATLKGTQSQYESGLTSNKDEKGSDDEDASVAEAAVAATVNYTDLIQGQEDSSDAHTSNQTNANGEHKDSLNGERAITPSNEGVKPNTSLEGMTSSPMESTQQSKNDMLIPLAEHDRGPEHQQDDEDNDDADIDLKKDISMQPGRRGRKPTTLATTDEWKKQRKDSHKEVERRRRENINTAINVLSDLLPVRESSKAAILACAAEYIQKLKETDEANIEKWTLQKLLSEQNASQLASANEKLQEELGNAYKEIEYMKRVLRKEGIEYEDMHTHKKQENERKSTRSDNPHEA
Method: protein-binding microarray
Molecule type: double-stranded DNA, one strand shown
Sample: in vitro
Concentration: 0.8 µM
Setting: whole 60-bp probe, no competitor
Direction: higher = stronger binding
Quantity: fluorescence intensity
All sequences stand within: … GTCTTGATTCGCTTGACGCTGCTG
Sequence = CTATATTCAAGCCAGCACATCAGCTACAGTGGATTC; value = 523 a.u.
Sequence = CTAAATCTTGTGGTTGTGGTGGTGCGTGTGAGCTTC; value = 563 a.u.
Sequence = CTAGAAAAGCGTAGCCTCATGACTAGTTGTACCTTC; value = 575 a.u.
Sequence = GAATTCAAAATTCAGCACCTGATTTAGTAAAGGTAG; value = 1400 a.u.
Sequence = GAAATGTGAAACTGATGTCTGATGCTGTTCTTTTAG; value = 506 a.u.
Sequence = CTATTCGGAGTTTCTCATGTGTTCTAGAAGATTTTC; value = 556 a.u.

Series 2
Target: Ras GTPase-activating protein-binding protein 1, full length (G3BP1, Homo sapiens, UniProt Q13283)
Chain of UniProt Q13283 (whole entry, looked up): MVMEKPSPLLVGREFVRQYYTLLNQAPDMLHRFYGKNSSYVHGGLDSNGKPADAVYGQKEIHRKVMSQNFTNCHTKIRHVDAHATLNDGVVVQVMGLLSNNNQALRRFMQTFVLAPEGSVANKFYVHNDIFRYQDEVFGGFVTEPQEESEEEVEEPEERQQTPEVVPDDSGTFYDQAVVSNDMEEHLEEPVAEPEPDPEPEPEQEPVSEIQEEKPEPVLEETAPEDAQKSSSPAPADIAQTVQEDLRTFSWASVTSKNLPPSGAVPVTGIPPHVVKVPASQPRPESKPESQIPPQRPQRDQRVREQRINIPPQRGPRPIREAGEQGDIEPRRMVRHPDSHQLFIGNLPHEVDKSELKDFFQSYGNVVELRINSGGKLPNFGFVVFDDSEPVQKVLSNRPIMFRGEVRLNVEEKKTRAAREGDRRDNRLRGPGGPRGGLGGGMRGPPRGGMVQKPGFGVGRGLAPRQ
Method: RNA Bind-n-Seq
Molecule type: RNA
Sample: in vitro
Concentration: 200 nM
Setting: whole 134-nt RNA, ends assumed
Together with: 150 mM KCl
Reference: input library
Direction: higher = stronger binding
Quantity: log2 enrichment
Sequence = GGGAGUUCUACAGUCCGACGAUCUGGCCCUGGUGGCAUGCGGGGAGGAAGAGGUGGCCUCAUGGAUCAUGGUGGUCCCGGUGGAAUGUUCAGAGGUGGCCGUGGUGGAGACAGUGGAAUUCUCGGGUGUCAAGG; value = 0.158
Sequence = GGGAGUUCUACAGUCCGACGAUCAGUCCUGUGCUACACAUCGUAUGUACCGAAUCGGGUUUGGGAAAAAGGGAAAAAGGGAAAGUAUUAUGUUACGCCGUUCGGAUCUGCACUUGGAAUUCUCGGGUGUCAAGG; value = -0.243
Sequence = GGGAGUUCUACAGUCCGACGAUCUGGCCCUGGUGGCAUGCGGCGAGGAAGAGGUGGCCUCAUGGAUCGUGGUGGUCCCGGUGGAAUGUUCAGAGGUGGCCGUGGUGGAGACAGUGGAAUUCUCGGGUGUCAAGG; value = 0.352
Sequence = GGGAGUUCUACAGUCCGACGAUCUGGGAGGUGGAUUUUGUAUAUUUUUUUAGCUCAUUUCCAGGGGUGGGAAUUUUUUUUUAAUAUGUGUCAUGAAUAAAGUUGUUUUUGAAAUGGAAUUCUCGGGUGUCAAGG; value = 0.232

Series 3
Target: Histone acetyltransferase KAT6A, winged helix 2, GST fusion (KAT6A, Homo sapiens, UniProt Q92794, residues 85-181)
Method: protein binding microarray
Molecule type: double-stranded DNA, one strand shown
Sample: in vitro
Concentration: not given
Setting: 8-mer, flanks averaged, mean of 2 arrays, mostly near background
Reference: not given
Direction: higher = stronger binding
Quantity: E-score
Construct (chain): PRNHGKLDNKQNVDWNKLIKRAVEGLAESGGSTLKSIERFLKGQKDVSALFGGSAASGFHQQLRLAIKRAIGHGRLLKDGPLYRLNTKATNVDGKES
Sequence = AGGTATCA; value = -0.0932
Sequence = GCGACCGC; value = 0.151
Sequence = ATGTTATG; value = -0.0105
Sequence = CATACAGC; value = -0.189

Mixed results
Molecule = PhoQ, residues 284 288 289 292 302 303 ASVMEA; target = PhoP, residues 12 14 15 18 19 GQALL (Escherichia coli, UniProt P23836); test = Sort-seq, refers to: YFP reporter; test system = E. coli; conditions = PhoQ-PhoP variant library, together with: 10 µM Mg2+; scale = reference: high Mg2+ state, higher = stronger signaling; quantity = fold induction; value = 21.3

For quick reference, copied from above (mixed results):
Molecule = PhoQ, residues 284 288 289 292 302 303 ASVMEA; target = PhoP, residues 12 14 15 18 19 GQALL (Escherichia coli, UniProt P23836); test = Sort-seq, refers to: YFP reporter; test system = E. coli; conditions = PhoQ-PhoP variant library, together with: 10 µM Mg2+; scale = reference: high Mg2+ state, higher = stronger signaling; quantity = fold induction; value = 21.3
